Measurements pooled from the literature.
Every numbered part comes from another study and shows a few of its results, in no order. Changes are numbered by the printed parent chain.

Block 1
Target: Histone acetyltransferase KAT6A, both winged helices, GST fusion (KAT6A, Homo sapiens, UniProt Q92794, residues 1-181)
Technique: protein binding microarray
Form: double-stranded DNA, one strand shown
Medium: in vitro
Concentration: not given
Notes: 8-mer, flanks averaged, mean of 2 arrays, mostly near background
Reference: not given
Direction: higher = stronger binding
Target sequence (chain): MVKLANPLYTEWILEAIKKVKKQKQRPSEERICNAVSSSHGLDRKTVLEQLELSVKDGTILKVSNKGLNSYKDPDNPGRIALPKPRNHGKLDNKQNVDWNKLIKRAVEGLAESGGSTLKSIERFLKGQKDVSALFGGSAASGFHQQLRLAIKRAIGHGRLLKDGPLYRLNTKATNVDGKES
Strand	E-score
CCAACATA	0.0184
CCAACTTC	-0.167
AGGTAGGG	-0.366
GGGTATGA	0.0561
CGGGCGCC	0.314
AAAGAAAT	-0.26
ATGGGCCG	0.116
ACCACAAG	-0.114
GCCGGGGA	0.168
AGAACTAG	-0.147
CTTGAAGA	-0.204
AGATCGTC	-0.12
GCGGCGCC	0.358
AAAACCTG	-0.194
CACATTGC	0.0172
GCGAGAGC	0.129
CGACCTTC	0.086

Block 2
Target: Centromere-binding protein 1, full length, His-tagged (CBF1, Saccharomyces cerevisiae, UniProt P17106, residues 1-351)
UniProt P17106, sequence (whole entry, looked up): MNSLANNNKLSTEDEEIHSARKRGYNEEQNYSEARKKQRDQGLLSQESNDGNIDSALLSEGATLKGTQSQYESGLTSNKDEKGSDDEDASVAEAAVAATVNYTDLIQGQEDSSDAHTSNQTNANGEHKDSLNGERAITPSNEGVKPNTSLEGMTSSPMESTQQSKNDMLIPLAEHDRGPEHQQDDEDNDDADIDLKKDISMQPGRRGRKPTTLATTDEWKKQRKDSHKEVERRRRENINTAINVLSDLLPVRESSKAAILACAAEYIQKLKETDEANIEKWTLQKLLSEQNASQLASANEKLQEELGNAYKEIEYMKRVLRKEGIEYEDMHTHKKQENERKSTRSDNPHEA
Technique: competition protein-binding microarray
Form: double-stranded DNA, one strand shown
Medium: in vitro
Concentration: 2 µM
Notes: whole 60-bp probe, lowest competitor level
Together with: Pho4 competitor, 0.05 µM
Direction: higher = stronger binding
Constant ends, left off below: … GTCTTGATTCGCTTGACGCTGCTG
Strand	fluorescence intensity
CATATGGTATGATTGCACGTGGGACTCTAGGGGAAG	1050 a.u.
ATAGATAGATGGCCGAACGTGGAATGCCTCTATGGG	55.9 a.u.
TGCCAAAATCTGCCTCAGGTGACAAGCCATTTTTCC	201 a.u.
GGTGATATACTGCGACACAATTTGTGTCTCTACTGT	95.1 a.u.
TACTTCCGTCGTTTGCACGTTGGCCAGAATGTCTCT	89 a.u.
TTAATGACTCCGGTGGTCGTGATGGTAATCTTGATA	82.6 a.u.
AGCCCGCTTCCCGACCACGTGGAGGAACCCTCCCCA	767 a.u.
CCTTGGTCTGTAGAGCACATGGCATTTCCAGGTCTC	129 a.u.
CTTTCCCGATCTTGCATGGTGGGTGTAGCACATTTG	65.5 a.u.
GCATCTGCAGGGTGCCTCGTGCAAAGTTAGAGGAAG	121 a.u.
AAATTACTAAGTTGCGATGTGGGTGACGCCGTATGA	58.9 a.u.
CGTCCTAGTGATTGTATGGTGGGTGCCATGAGGAAG	85.4 a.u.

Block 3
Target: ABI1, truncated, D143A, DHFR fusion (Arabidopsis thaliana)
Technique: DHFR PCA, deep sequencing
Medium: yeast
Notes: methotrexate growth selection, single substitutions
Together with: (+)-ABA 0.032 µM
Reference: wild-type fitted maximum
Direction: higher = stronger binding
Parent: PYL1, truncated, DHFR fusion (Arabidopsis thaliana); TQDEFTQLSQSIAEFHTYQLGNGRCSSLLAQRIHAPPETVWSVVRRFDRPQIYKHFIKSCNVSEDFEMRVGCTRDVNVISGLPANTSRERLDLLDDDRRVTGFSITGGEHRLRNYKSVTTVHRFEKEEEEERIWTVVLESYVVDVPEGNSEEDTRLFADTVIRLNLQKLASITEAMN; partner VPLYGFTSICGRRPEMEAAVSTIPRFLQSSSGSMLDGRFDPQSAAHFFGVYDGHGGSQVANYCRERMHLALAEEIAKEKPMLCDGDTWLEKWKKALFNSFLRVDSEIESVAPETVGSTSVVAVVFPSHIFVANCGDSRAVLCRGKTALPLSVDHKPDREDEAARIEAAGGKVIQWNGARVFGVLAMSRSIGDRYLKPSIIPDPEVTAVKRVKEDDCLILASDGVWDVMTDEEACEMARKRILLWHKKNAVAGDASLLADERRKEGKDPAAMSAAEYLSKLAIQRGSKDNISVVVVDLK
Substitution	relative binding score
K116N	-1.12%
P83C	10.7%
G23M	4.28%
R24M	17.7%
S140M	0.996%
S42E	31.6%
C72H	-6.28%
G107K	4.57%
A84M	54.5%
S171N	22.7%

Block 4
Target: RNA binding protein fox-1 homolog 2, RRM domain, GST-SBP tag (RBFOX2, Homo sapiens, UniProt O43251-10, residues 100-194)
Technique: RNA Bind-n-Seq
Form: RNA
Medium: in vitro
Concentration: 365 nM
Notes: natural RNA segment, single round, ends assumed
Reference: no-protein control
Direction: higher = stronger binding
Constant ends, left off below: GGGAGUUCUACAGUCCGACGAUC … UGGAAUUCUCGGGUGCCAA
Residues (chain): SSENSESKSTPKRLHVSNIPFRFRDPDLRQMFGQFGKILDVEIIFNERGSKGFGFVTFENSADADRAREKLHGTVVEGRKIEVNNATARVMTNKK
Strand	RBNS enrichment (R)
CAGAUUGCAUAGCCUGAAAGAGGCUUCUGUGGCCACCUGGGAGUCUCAGUGUUUUCUUCAAAACUUCUCCAAGAGAGUCCAGGCUCUCACAUCGUCUUCCUGUGCGACCU	0.442
UGUAUUGUCUCCGGCCACACUGGCAAGAUCAUCAUUAGAAAUGGAAAUGACAUUUGAAAGCCAUUAGACUUCUAGGUGAUGCAUCUAAGAAAGAUUAAUCACACAAUAGA	0.272
CACCCAAGGCCUUCUCCUGCCUCCUGUCCACUGCCAGCGUCCUCAUUUGUCAUCGGUCAUUAGCCUCCCUCUGUGCUCCCUGGCACUCUUAAUAUAGAUUGAACCAGAAA	0.895
UUGCUUGUAAAGUAAAAGCUUUUUUUCCUUGUAAACCAUUUAAGUCCAUUCCUUACUAUUCACUCACUCAUCUGUCUCCCUUCAUUUCACUGUUAGACUCUUUUCCACUU	0.696
AAAACCAUUUGGCUGGCAGAAAUUAUCUAGAAAAAUUAUUAUUUUGCAGUUAUCUGAGACACCAAACUUACCAUCCUUUAUUUUACAAUAUUUUUGAUCGACCAAAUAAA	0.576
CCAAAUUGUUAGACAGCAUCAGGAUUGCGGAUUAUCUCAAGUAGAUUUUGUUAGAGUUCAGAGCACAGCAUCACUCUGAAGGAGUCUGUCUUAUAAAUACAUAAUUACUG	0.563
CCCUGCUCCCCCUUUUUUCAAGUGCCUUAAUAGCAGGGCAAACUGUAGAGUCAGGAGGGCAGGCUAGAUGCUCAGCCACAAGACAGCCUUUACUGAAAAAGCUAUUGGAC	0.297
UUAAAGGCCAAACGGACUGUCCCAUUUUGGGGAUCAGGACAUCCCUGUCCUUAUCUCCUGUCAUAGCUGUCCAACUGCAGGGUAAGGAGCAAGUUGUGAGGAAAGGUCCU	0.248
GAGGGCAGAAUUCAACAAGCACAACUCACUGGUCUUUCAGUCAACGUGCUAGAAACCGAUGACUUAUUAAUCUCUAAUUUUUUGGCGCCUCUUUCAUUGAAUGAGAAUUG	0.782
GGGAAAAGAUUCCCACCCAAUUCAAAACAUUGUGCCAUGUCAAACAAAUAGUCUAUCAACCCCAGACACUGGUUUGAAGAAUGUUAAGACUUGACAGUGGAACUACAUUA	0.354
UCAUCAGGCCAUUACAUUGUCCAUGUUAAAAUUAUAAAAAUGAUCCUAGUUUUUCAUAGGAGUCUAGGAUUUUGAUCUUUUAAAAAAUACAGUGUGAUUUCAUGCUUUUG	0.425
CUUUUUUAUCUUGUAUGUCCCCCUCUUAGUCUGCUGAGCUUUUGUUUUGCUUGGUUUUCAGUGAUAGACAUGGGAUAGCCAAAAGAAGGGACUACCUGAAACCCCUAACU	0.228

Block 5
Target: Ras GTPase-activating protein-binding protein 1, full length (G3BP1, Homo sapiens, UniProt Q13283)
UniProt Q13283, sequence (whole entry, looked up): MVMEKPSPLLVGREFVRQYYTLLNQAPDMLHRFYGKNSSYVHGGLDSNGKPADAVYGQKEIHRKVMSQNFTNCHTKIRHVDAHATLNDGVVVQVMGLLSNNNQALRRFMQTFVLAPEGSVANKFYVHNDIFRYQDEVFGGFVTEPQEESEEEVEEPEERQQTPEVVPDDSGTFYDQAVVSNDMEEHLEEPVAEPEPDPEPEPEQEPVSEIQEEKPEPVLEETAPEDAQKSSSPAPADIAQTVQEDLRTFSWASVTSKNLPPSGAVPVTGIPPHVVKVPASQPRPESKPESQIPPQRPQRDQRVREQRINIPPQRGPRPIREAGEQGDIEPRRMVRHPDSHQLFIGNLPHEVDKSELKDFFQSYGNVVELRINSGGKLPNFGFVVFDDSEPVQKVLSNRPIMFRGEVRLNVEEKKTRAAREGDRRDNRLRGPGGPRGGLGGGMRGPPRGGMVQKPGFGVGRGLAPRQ
Technique: RNA Bind-n-Seq
Form: RNA
Medium: in vitro
Concentration: 200 nM
Notes: whole 134-nt RNA, ends assumed
Together with: 150 mM LiCl
Reference: input library
Direction: higher = stronger binding
Each molecule: 7-deaza-guanosine replaces G
Constant ends, left off below: GGGAGUUCUACAGUCCGACGAUC … UGGAAUUCUCGGGUGUCAAGG
Strand	log2 enrichment
UGGCCCUGGUGGCAUGCGGGGAGGAAGAGGUGGCCUCAUGGAUCGUGGUGGUCCCGGUGGAAUGCUCAGAGGUGGCCGUGGUGGAGACAG	-0.0511
CACAGACGACACGCACCCACACAGACACAGAGGGAAGGGGUUGGGAUGGGGACAGGGUGCACAGCAGGGCGGGGUAGGACCCCAGCCCCU	0.532
ACCAAACAGGUGGGCAUCUUUGGGAAGUGGGGCAAGGGGGGGAUAGGGAGGGGGGUAACACUUUGGGAACAGGUGGUCCCAGGUCGUUUC	0.353
CCUCAAGUCCUGUGCUACACAUCGUAUGUACCGAAUCGGCGGGGCGGGCGGGGAAAGUAUUAUGUUACGCCGUUCGGAUCUGCACUUCCA	-0.135
UCCUGUGCUACACAUCGUAUGUACCGAAUCGGGGAAAAAAGGAAAAAAGGGGAAAAAAGGAAAGUAUUAUGUUACGCCGUUCGGAUCUGC	-0.37
AAGUCCUGUGCUACACAUCGUAUGUACCGAAUCGGAGGAAAAAAAGGAAAAAAAGGAAAGUAUUAUGUUACGCCGUUCGGAUCUGCACUU	-0.573
ACCAUGCAGGUGGGCAUCUUUGGGAAGUGGGGCAAGGGGGGGAUAGGGAGGGGGGUAAUACUUUGGGAACAGGUGGUCCCAGGUCGUUUC	0.254
UGGGAGGUGGAUUUUGUUUAGUUUUUUAGCUCAUUUCCAGGGGUGGGAAUUUUUUUUUAAUAUGUGUCAUGAAUAAAGUUGUUUUUGAAA	0.135
GCAGGAAGUAAAAACAAAUGGAAAUGCUUCGGAUAGUGGCAGGGGUGGGGGUUGCUAAGGAAAGGGUGGGAUGGGUGUGGGUAAAGAGUU	0.428
CAAGUCCUGUGCUACACAUCGUAUGUACCGAAUCGGGGAAAGGGGAAAGGAAAGGAAAGUAUUAUGUUACGCCGUUCGGAUCUGCACUUC	0.0736
UUCGACGGCGCCGGGCGAGUGGCUGUUGAGCGGCGCCGCGGGAGUUCCGCAGGUUUCCCGUGUUCGCAGCGGAGCCGGAGGCCAGCUGAA	-1.6

Excerpt of the above (block 3):
Substitution	relative binding score
P83C	10.7%
G23M	4.28%
R24M	17.7%
S140M	0.996%
